Experimental data from different studies.
Parts stem from different laboratories: compare values within a part only. Changes are numbered by the printed parent chain.

Study 1
Target: RING finger protein unkempt homolog, zinc fingers 1-6, GST-SBP tag (UNK, Homo sapiens, UniProt Q9C0B0, residues 30-357)
Sequence of UniProt Q9C0B0 (30-357, looked up): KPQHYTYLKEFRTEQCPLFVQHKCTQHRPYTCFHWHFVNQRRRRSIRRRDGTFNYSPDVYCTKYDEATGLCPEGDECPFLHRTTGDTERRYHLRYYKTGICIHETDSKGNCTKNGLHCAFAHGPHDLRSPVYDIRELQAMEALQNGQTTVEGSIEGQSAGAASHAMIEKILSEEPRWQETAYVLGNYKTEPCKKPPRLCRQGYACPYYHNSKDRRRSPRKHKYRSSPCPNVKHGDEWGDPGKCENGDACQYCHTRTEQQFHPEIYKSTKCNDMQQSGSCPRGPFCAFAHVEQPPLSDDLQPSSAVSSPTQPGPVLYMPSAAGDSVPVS
Technique: RNA Bind-n-Seq
Form: RNA
Matrix: in vitro
Concentration: not given
Notes: RNA with constant flanks, human and mouse sites, ends assumed
Reference: input RNA pool
Direction: higher = stronger binding
Endpoint: bound/input enrichment
All sequences stand within: GGGAGUUCUACAGUCCGACGAUC … CAACAGAGGAUUGAGCAUCA
Sequence = UGAAGUGGUUUUUGUGGGUGUGAAACAAAUGGUGAGAAUUUGAAUUGGUCCCUCUUAUUAUAGUAUUGAAAUUAAGUCUACUUAAUUUAUCAAGUCAUGUUCAUGCCCUGAUUUUAUAUA; result = 3.47 ratio
Sequence = GAUGGUGCACAUGCCCCAGAGUUGACCAAAAAAGUUCAGCGACAUGCAUCUAGUGGCUCCUUCCUACCCAGCGCUAAUGAACAUCUUAAAGAAGAUCUCAACCUUCGCUUGAAGAAAUUG; result = 0.128 ratio
Sequence = CUCCGAUUUGGAAAAACUAAACAUCUCUCCUGGAGUUCUGGGCAGAGAGAAAACCAGUAGUCAUUUUCUUCGGAACUGUGGAAUGUACCCUUGGGAGUCCCACAAAUCAGGCAGAAGAUG; result = 0.136 ratio
Sequence = AUCAUUGGCUAUGCCAGGAACCCGUCUCUCAAGCAGCAGCUCUUCUCCUAUGCCAUUCUUGGCUUUGCCCUGUCUGAGGCCAUGGGGCUUUUCUGUUUGAUGGUCGCCUUCCUCAUCCUC; result = 0.131 ratio
Sequence = GGGUAUGGCAAUCCCCGAAACUCACCAGGUCUGCUGGUCUCACCUGGUAACUUGAACAAGAAUAUGCAAGCAAAAUCUCCUCCCCCAAUGAAUUUAGGAAUGAAUAACCGUAAACCAGAU; result = 2.27 ratio
Sequence = GUUCUUAAAUAUGCAGGACUGAAAAAAGAAGACAUUGCCAUGUGGGAAGUAAAUGAAGCAUUCAGUGUGGUUGUGCUAGCCAACAUUAAAAUGCUGGAGAUUGACCCCCAAAAAGUAAAU; result = 0.225 ratio
Sequence = AGGAAAUGCUGCAAUCAUCCGUAUCUUAUCAAAGGUGCUGAGGAGAAAAUACUUGGAGAAUUUAGAGAUACAUACAAUCCAUCUGCCUCUGAUUUUCAUCUGCAAGCAAUGAUCCAAUCU; result = 0.308 ratio
Sequence = GUUGGACUCAUUCAGGGAGCUGCUAUGGCUAUACUGGUUGCUUUGUAUGUAUCCGAUUUCUUCAAGGACACACAUUCUUACAAAGAGAGAAAGGAAGAGGAUCCACACACGACUCUCCAU; result = 0.26 ratio

Study 2
Target: ABI1, truncated, D143A, DHFR fusion (Arabidopsis thaliana)
Technique: DHFR PCA, deep sequencing
Matrix: yeast
Notes: methotrexate growth selection, single substitutions
With: (+)-ABA 0 µM
Reference: wild-type fitted maximum
Direction: higher = stronger binding
Endpoint: relative binding score
Starting sequence: PYL1, truncated, DHFR fusion (Arabidopsis thaliana); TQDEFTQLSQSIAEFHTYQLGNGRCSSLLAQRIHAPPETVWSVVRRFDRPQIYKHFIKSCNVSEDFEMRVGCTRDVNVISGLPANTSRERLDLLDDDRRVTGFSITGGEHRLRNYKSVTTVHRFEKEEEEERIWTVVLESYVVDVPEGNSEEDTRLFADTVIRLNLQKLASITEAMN
Change = G23P; result = -2.91%
Change = V44P; result = 0.993%
Change = I33L; result = -2.15%
Change = N22Y; result = 20.2%
Change = T135K; result = -4.88%
Change = S42D; result = 15%
Change = H34Q; result = 37%
Change = K116W; result = 0.225%
Change = A30G; result = 6.81%
Change = N77I; result = 41.3%
Change = N61E; result = 46.6%
Change = D144L; result = -9.89%
Change = A170L; result = -13.3%
Change = L29D; result = 3.19%

Study 3
Target: RNA binding protein fox-1 homolog 2, RRM domain, GST-SBP tag (RBFOX2, Homo sapiens, UniProt O43251-10, residues 100-194)
Technique: RNA Bind-n-Seq
Form: RNA
Matrix: in vitro
Concentration: 365 nM
Notes: natural RNA segment, single round, ends assumed
Reference: no-protein control
Direction: higher = stronger binding
Endpoint: RBNS enrichment (R)
All sequences stand within: GGGAGUUCUACAGUCCGACGAUC … UGGAAUUCUCGGGUGCCAA
Construct (chain): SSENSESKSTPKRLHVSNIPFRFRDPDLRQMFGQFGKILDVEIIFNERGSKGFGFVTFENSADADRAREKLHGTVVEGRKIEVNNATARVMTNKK
Sequence = AUUUUAGCCAUUUUGUCGCCUGCACCCACUCCCUUCAUACAAUCUAGUCAGAAUAGCAGUUCUAGAGCACAGGUUCUCAGUCUAAGCUAUGGAAAAGCUCCCCUUAUCCA; result = 0.415
Sequence = GGGUUCAGAAUUGUAGCCUCAGCCUGUUUGACAAAGGUCUUGGGAACUCUGUGACUGCUUUGCCCACCAGUGUCAUCAUGUCAUUUGCCCUAAACACCUUGUAGUUGCUG; result = 0.707
Sequence = UUCUCUGAAAGCUUAGCCUCAAGGGAACACCUAAAGAGCUCCCCUACAUAGACUCCUGCCUCCAGGUGCAGGAACACACCUUCCUAAAGUGCUGUGGGAGGCCAAACUGG; result = 0.342
Sequence = ACCUGGGCCAUAGUCAUUCUGCCUGCCCUGAAAGUCCCAGAUCAAGCCUGCCUCAAUCAGUAUUCAUAUUUAUAGCCAGGUACCUUCUCACCUGUGAGACCAAAUUGAGC; result = 0.381
Sequence = UCUUCCUCUGCUGUCGAGACGUUCCUGUCUGCUUCCCGGGAGCCUCACGUGCUCCUUGUCCUAACCAGCCCCCGCGCGCCAUCUUCCCGUGGAGUGUGGGGAAGCUGCUG; result = 0.225
Sequence = CACUGCUGCUGCCCCGUCGGCAUGUGCGGCGGCUACCUGAGCUGACCCCUGCUGAGCGUGAUGGUCUAGCCUCCAUCAUGAAGAAGCUCUUGACCAAGUAUGACAACCUC; result = 0.379
Sequence = CAAACUGUUGAUUACAGGUGCACUACAGGUAUGCUCUUUCAGUCUAUCUGGGGGCACAUAGGUGAGUCUGCUCCACUCAGAAGGAAGCAUACCUCUGCCCUCAUCCAGGG; result = 0.48
Sequence = GGCAGGAGGUGGCAUGUGCCCAGCACUUCCAUUAAUCUGAGCCUAGGAGUUGAAUUCUUUGGCAAGGUUGGAUUCUGAGGUCCUUAUUAUGUUAAUGAUGGUGCAAUACU; result = 2.24

Study 4
Target: CCND1, cyclin fold, Cln2 fusion (human)
Technique: yeast growth competition, sequencing
Matrix: yeast
Notes: strong parent motif
Reference: not given
Direction: higher = stronger binding
Endpoint: normalised enrichment score
Starting sequence: CDC42EP1 docking peptide (human); SLVVGKLSFDSSP
Change = S8A; result = 0.739
Change = F9A; result = 0.976
Change = S12A; result = 0.696
Change = D10A; result = 0.588
Change = S11A; result = 0.871
Change = K6A; result = 0.728
Change = L7A; result = 0.391

Repeated from above (study 1):
Sequence = GAUGGUGCACAUGCCCCAGAGUUGACCAAAAAAGUUCAGCGACAUGCAUCUAGUGGCUCCUUCCUACCCAGCGCUAAUGAACAUCUUAAAGAAGAUCUCAACCUUCGCUUGAAGAAAUUG; result = 0.128 ratio
Sequence = CUCCGAUUUGGAAAAACUAAACAUCUCUCCUGGAGUUCUGGGCAGAGAGAAAACCAGUAGUCAUUUUCUUCGGAACUGUGGAAUGUACCCUUGGGAGUCCCACAAAUCAGGCAGAAGAUG; result = 0.136 ratio
Sequence = AUCAUUGGCUAUGCCAGGAACCCGUCUCUCAAGCAGCAGCUCUUCUCCUAUGCCAUUCUUGGCUUUGCCCUGUCUGAGGCCAUGGGGCUUUUCUGUUUGAUGGUCGCCUUCCUCAUCCUC; result = 0.131 ratio
Sequence = GGGUAUGGCAAUCCCCGAAACUCACCAGGUCUGCUGGUCUCACCUGGUAACUUGAACAAGAAUAUGCAAGCAAAAUCUCCUCCCCCAAUGAAUUUAGGAAUGAAUAACCGUAAACCAGAU; result = 2.27 ratio
Sequence = GUUCUUAAAUAUGCAGGACUGAAAAAAGAAGACAUUGCCAUGUGGGAAGUAAAUGAAGCAUUCAGUGUGGUUGUGCUAGCCAACAUUAAAAUGCUGGAGAUUGACCCCCAAAAAGUAAAU; result = 0.225 ratio
